Published values of several laboratories.
Every numbered part comes from another study and shows a few of its results, in no order. Substitutions count along the parent as printed.

Block 1 — method: protein binding microarray; form: double-stranded DNA, one strand shown; matrix: in vitro; concentration: not given; reference: not given; reading: higher = stronger binding
Target: Histone acetyltransferase KAT6A, winged helix 2, GST fusion (KAT6A, Homo sapiens, UniProt Q92794, residues 85-181)
Setting: 8-mer, flanks averaged, mean of 2 arrays, mostly near background
Target sequence (chain): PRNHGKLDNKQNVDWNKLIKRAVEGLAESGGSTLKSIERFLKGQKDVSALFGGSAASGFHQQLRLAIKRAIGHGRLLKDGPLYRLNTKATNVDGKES
For `GATTATCC`, the E-score was 0.0616.
For `GAGGGAGC`, the E-score was 0.0704.
With `AAACGCAG` the E-score was 0.139.
With `TGAAAACA` the E-score was 0.0173.
With `CTTAGGTC` the E-score was 0.014.
For `AAGCAGCC`, the E-score was 0.0664.
`CACGAACC` has an E-score of 0.0595.
`ACCCAATA` has an E-score of -0.00103.
`CACATTAG` has an E-score of -0.117.
`GAGAGGCC` has an E-score of 0.109.
For `CTATCCTA`, the E-score was -0.0652.
`CCAGGGAC` gave an E-score of -0.146.
The E-score of `CTAGATTC` is reported as -0.131.
With `CCACCGGC` the E-score was 0.102.
With `ACAGGACC` the E-score was 0.0601.
`TACGTCGA` gave an E-score of -0.129.
For `AATACATA`, the E-score was 0.0352.
The E-score of `ATTGCAAG` is reported as -0.072.
`AGCAGGGG` gave an E-score of 0.126.
`CGACAATA` has an E-score of -0.0417.
For `CAGACAGG`, the E-score was 0.00206.
`AGTTGTTG` gave an E-score of 0.0526.
The E-score of `GTTGCGAA` is reported as 0.133.
With `CGAAACCG` the E-score was 0.167.

Block 2 — method: DHFR PCA, deep sequencing; matrix: yeast; added: (+)-ABA 1.4 µM; reference: wild-type fitted maximum; reading: higher = stronger binding
Target: ABI1, truncated, D143A, DHFR fusion (Arabidopsis thaliana)
Setting: methotrexate growth selection, single substitutions
Parent: PYL1, truncated, DHFR fusion (Arabidopsis thaliana); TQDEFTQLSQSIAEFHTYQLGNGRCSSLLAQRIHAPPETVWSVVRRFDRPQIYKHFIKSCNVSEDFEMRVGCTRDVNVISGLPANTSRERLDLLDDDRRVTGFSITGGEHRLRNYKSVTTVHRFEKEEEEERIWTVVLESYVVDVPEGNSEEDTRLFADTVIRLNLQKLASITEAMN
`E139G` — result for “relative binding score”: -6.84%.
Under “relative binding score”, `V118F` is recorded as -3.34%.
Under “relative binding score”, `A30D` is recorded as 8.64%.
`T106L` — result for “relative binding score”: 71.8%.
Under “relative binding score”, `S171Q` is recorded as 68.4%.
`R32V` — result for “relative binding score”: 66.5%.
`R98V`: “relative binding score” 17%.
For `A158R`, “relative binding score” read 2.56%.
Under “relative binding score”, `P50G` is recorded as -8.32%.
`V142E` — result for “relative binding score”: 39.1%.
For `E14P`, “relative binding score” read -8.97%.
Under “relative binding score”, `N114G` is recorded as 45%.
`K58R`: “relative binding score” 54.1%.
`Q51Y` — result for “relative binding score”: -9.45%.
`T120P`: “relative binding score” -3.42%.

Block 3 — target: CCNA2, cyclin fold, Cln2 fusion (human); method: yeast growth competition, sequencing; matrix: yeast; setting: strong parent motif; reference: not given; reading: higher = stronger binding
Parent: RB1 docking peptide (human); PKPLKKLRFDIEG
For `L4F`, “normalised enrichment score” read 2.1.
For `P1V`, “normalised enrichment score” read 0.824.
Under “normalised enrichment score”, `E12W` is recorded as 2.62.
`K2Y`: “normalised enrichment score” 1.03.
Under “normalised enrichment score”, `L7T` is recorded as 0.0755.
For `L4M`, “normalised enrichment score” read 2.02.
Under “normalised enrichment score”, `P1K` is recorded as 1.5.
`G13V`: “normalised enrichment score” 1.04.
`K6D`: “normalised enrichment score” 0.246.
Under “normalised enrichment score”, `K2V` is recorded as 1.16.
`D10L` — result for “normalised enrichment score”: 1.29.
For `P3N`, “normalised enrichment score” read 0.348.
`P3T` — result for “normalised enrichment score”: -0.0929.
`L4R` — result for “normalised enrichment score”: 4.56.
`K5N`: “normalised enrichment score” 0.636.
`F9M`: “normalised enrichment score” 1.11.
Under “normalised enrichment score”, `L4Q` is recorded as 1.42.
`P3Y` — result for “normalised enrichment score”: 0.568.
Under “normalised enrichment score”, `K6R` is recorded as 1.59.
`F9S`: “normalised enrichment score” 0.187.
`K6M`: “normalised enrichment score” 0.798.
Under “normalised enrichment score”, `R8M` is recorded as 1.36.
Under “normalised enrichment score”, `D10S` is recorded as 1.09.
`R8N`: “normalised enrichment score” 2.17.
`L4Y` — result for “normalised enrichment score”: 2.37.

Block 4 — method: competition protein-binding microarray; form: double-stranded DNA, one strand shown; matrix: in vitro; concentration: 2 µM; added: Cbf1 competitor, 0.05 µM; reading: higher = stronger binding
Target: Phosphate system positive regulatory protein PHO4, full length, GST-tagged (PHO4, Saccharomyces cerevisiae, UniProt P07270, residues 1-312)
Setting: whole 60-bp probe, lowest competitor level
Residues (chain): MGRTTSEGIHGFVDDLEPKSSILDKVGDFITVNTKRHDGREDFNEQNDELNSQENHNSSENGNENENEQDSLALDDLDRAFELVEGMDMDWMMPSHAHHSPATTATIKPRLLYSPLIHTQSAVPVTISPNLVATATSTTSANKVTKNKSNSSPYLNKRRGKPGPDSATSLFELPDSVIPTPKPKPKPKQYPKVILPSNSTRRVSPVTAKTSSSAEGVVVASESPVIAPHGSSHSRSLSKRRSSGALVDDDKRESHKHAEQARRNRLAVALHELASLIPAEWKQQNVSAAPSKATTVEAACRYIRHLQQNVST
The fluorescence intensity of `CGGGGTTAAGTTTGGTAGGTGGGTGGCTTGCAGCAGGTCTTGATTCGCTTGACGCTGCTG` is reported as 4400 a.u.
`GCAGTGCATAAGAGTGACCTGCGGCCAAGAACCCTAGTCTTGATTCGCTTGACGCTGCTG` has a fluorescence intensity of 3040 a.u.
The fluorescence intensity of `CGGGGTTAAGTTTTTCACGTGCCCTGCTTGCAGCAGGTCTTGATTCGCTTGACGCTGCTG` is reported as 12200 a.u.
For `ATTCAAGAGATCCATCTCGTGACGGTGAAAAAATTTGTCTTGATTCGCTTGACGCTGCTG`, the fluorescence intensity was 6340 a.u.
`CTTCTGTAAATTTGCGGCGTGGGTGGACGCGCCCCGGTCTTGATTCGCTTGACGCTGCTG` has a fluorescence intensity of 7440 a.u.
The fluorescence intensity of `CAGCGGCATTTCGCTCGCGTGCCAGATCTCACAATCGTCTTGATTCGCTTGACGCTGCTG` is reported as 8770 a.u.
`GTATGCACTTGAAACAACGTGTAGACCATCAAGTTGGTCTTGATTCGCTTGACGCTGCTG` has a fluorescence intensity of 11700 a.u.
`CGTCCTAGTGATTGCGCAGTGGGTGCCATGAGGAAGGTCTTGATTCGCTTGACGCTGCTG` has a fluorescence intensity of 6520 a.u.
With `AAGAGAAGAAAAAAGCGCGTGGTCGGAGCCGCGCTAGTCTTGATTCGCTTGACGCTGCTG` the fluorescence intensity was 10500 a.u.
`TACGATACTACCATACATGTGATATGTCCCTTTCTAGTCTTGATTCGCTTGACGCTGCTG` gave a fluorescence intensity of 7780 a.u.
`AAGTTATTGGTGTTCGTCGTGCCGATTGGAGAATTGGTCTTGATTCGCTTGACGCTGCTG` gave a fluorescence intensity of 7330 a.u.
`CTTCTGTAAATTTGCATGGTGGGTGGACGCGCCCCGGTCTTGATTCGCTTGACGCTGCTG` has a fluorescence intensity of 4500 a.u.
With `TGGCGCCGCCGCCACCACGCGGCAGCTCTGATTGGAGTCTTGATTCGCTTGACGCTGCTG` the fluorescence intensity was 9040 a.u.
`CATACCCAACCTTTTCACGTGACGTAAGATATTTGTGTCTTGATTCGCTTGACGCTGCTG` gave a fluorescence intensity of 14000 a.u.
`CGGGGTTAAGTTTTTCACGTGCCGTGCTTTCAGCAGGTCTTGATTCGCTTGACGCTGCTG` gave a fluorescence intensity of 12300 a.u.
With `GAAGGAGCGGGGCGTCATGCTAACCAGGAATGGAAGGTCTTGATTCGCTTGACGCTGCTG` the fluorescence intensity was 5360 a.u.
`CGGTTGAGACTTTAGCACGTGCTTTAGTTTATTTATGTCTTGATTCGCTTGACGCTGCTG` gave a fluorescence intensity of 19300 a.u.
`TGCGCAACAACTTGCAGTGTGGGTGTATGTCTAGAAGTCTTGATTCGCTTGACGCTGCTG` gave a fluorescence intensity of 5780 a.u.
`TGTTTGGGTTTTTAGCACGTCGTACACTGGCCTTTAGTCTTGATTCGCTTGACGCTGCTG` gave a fluorescence intensity of 6120 a.u.

Block 5 — method: aptamer microarray, sandwich; form: DNA with 2'F-ANA; matrix: in vitro; concentration: 200 nM; added: Cy3 exosite-II aptamer, 400 nM; reading: higher = stronger binding; oligonucleotide: GGTTGGTGTGGTTGG
Target: Prothrombin, mature alpha-thrombin (F2, Homo sapiens, UniProt P00734)
Setting: whole 15-mer aptamer, many near background
`2'F-ANA at 1 2 3 4 5 6 9 11 13 15` — result for “mean fluorescence intensity”: 56.1 a.u.
For `2'F-ANA at 1 2 3 7 8 12 13`, “mean fluorescence intensity” read 542 a.u.
For `2'F-ANA at 1 4 5 6 11 12 14 15`, “mean fluorescence intensity” read 48.5 a.u.
Under “mean fluorescence intensity”, `2'F-ANA at 1 3 4 5 12 13 15` is recorded as 82.2 a.u.
`2'F-ANA at 1 2 3 4 5 6 7 9 10 12 13`: “mean fluorescence intensity” 49.8 a.u.
`2'F-ANA at 2 3 5 7 12 13 14` — result for “mean fluorescence intensity”: 82.8 a.u.
`2'F-ANA at 8 12 13 14` — result for “mean fluorescence intensity”: 245 a.u.
`2'F-ANA at 1 4 6 9 10 11 12 13` — result for “mean fluorescence intensity”: 50.5 a.u.
For `2'F-ANA at 5 7 8 11`, “mean fluorescence intensity” read 153 a.u.
`2'F-ANA at 1 4 7 8 9 10 11 13 14` — result for “mean fluorescence intensity”: 43.8 a.u.
`2'F-ANA at 5 6 8 9 13 14 15` — result for “mean fluorescence intensity”: 79.2 a.u.
`2'F-ANA at 2 5 6 7 9 12 14` — result for “mean fluorescence intensity”: 69.3 a.u.
Under “mean fluorescence intensity”, `2'F-ANA at 3 4 7 8 13 15` is recorded as 559 a.u.
`2'F-ANA at 2 7 8 9 10 13 14`: “mean fluorescence intensity” 109 a.u.
`2'F-ANA at 1 3 4 5 6 7 8 11`: “mean fluorescence intensity” 82.8 a.u.
For `2'F-ANA at 1 2 4 8 10 12 13`, “mean fluorescence intensity” read 55.7 a.u.
Under “mean fluorescence intensity”, `2'F-ANA at 2 3 5 6 10 14 15` is recorded as 52.6 a.u.
`2'F-ANA at 1 3 7 9 10 11 12 13 14`: “mean fluorescence intensity” 60.6 a.u.
For `2'F-ANA at 2 3 4 6 8 11 12 14`, “mean fluorescence intensity” read 302 a.u.
